Measurements gathered from unrelated publications.
Parts stem from different laboratories: compare values within a part only.
UniProt P17106, sequence (whole entry, looked up): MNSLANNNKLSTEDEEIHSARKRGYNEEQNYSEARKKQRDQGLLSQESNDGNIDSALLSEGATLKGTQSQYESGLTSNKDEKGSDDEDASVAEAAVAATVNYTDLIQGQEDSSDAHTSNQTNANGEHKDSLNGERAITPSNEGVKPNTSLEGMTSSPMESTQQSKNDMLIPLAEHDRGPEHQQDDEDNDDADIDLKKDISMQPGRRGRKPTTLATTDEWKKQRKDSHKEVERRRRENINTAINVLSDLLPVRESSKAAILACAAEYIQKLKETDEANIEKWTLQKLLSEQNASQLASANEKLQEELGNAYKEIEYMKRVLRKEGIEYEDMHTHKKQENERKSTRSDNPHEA

Set 1
Target: Histone acetyltransferase KAT6A, winged helix 2, GST fusion (KAT6A, Homo sapiens, UniProt Q92794, residues 85-181)
Technique: protein binding microarray
Molecule type: double-stranded DNA, one strand shown
Medium: in vitro
Tested at: not given
Notes: 8-mer, flanks averaged, mean of 2 arrays, mostly near background
Relative to: not given
Reading: higher = stronger binding
Target sequence (chain): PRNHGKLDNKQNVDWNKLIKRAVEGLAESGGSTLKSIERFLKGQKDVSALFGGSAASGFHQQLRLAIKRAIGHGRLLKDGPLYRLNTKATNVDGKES
Sequence | E-score
CAGGCTGG | 0.0339
GGGGGTCA | -0.0322
GGAAATCC | 0.0129
ATCGTTAC | -0.137
AGCCGGCC | 0.187

Set 2
Target: Interferon regulatory factor 3, full length, phosphomimetic (IRF3, Homo sapiens, UniProt Q14653, residues 1-427, S386D/S396D/S398D/S402D/T404D/S405D)
Technique: protein-binding microarray
Molecule type: double-stranded DNA, one strand shown
Medium: in vitro
Tested at: 2540 nM top
Notes: 60-bp whole probe
Together with: salmon DNA 0.4 mg/ml
Relative to: random background probes
Reading: higher = stronger binding
Construct (chain): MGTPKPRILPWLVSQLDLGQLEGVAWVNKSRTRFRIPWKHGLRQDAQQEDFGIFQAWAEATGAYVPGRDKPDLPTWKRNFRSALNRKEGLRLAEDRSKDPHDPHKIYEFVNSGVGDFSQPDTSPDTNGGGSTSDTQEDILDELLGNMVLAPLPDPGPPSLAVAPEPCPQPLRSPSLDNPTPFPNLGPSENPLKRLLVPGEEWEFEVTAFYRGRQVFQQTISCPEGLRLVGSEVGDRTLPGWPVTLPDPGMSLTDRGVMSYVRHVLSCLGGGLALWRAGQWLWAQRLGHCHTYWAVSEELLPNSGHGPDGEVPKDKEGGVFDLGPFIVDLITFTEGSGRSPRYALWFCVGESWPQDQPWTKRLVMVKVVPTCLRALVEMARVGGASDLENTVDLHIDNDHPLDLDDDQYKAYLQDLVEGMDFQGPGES
Sequence | fitted relative affinity
GCCTAGCACTTAGGTATCGTTTTCCTTTAGTGCTAGGTCTTGATTCGCTTGACGCTGCTG | 5.96 z-score
GCCTAGCACTCAGGTATAGCACTAAGACTGTGCTAGGTCTTGATTCGCTTGACGCTGCTG | -0.531 z-score
GCCTAGCACGACGGAATGGGTTTCGGGACGTGCTAGGTCTTGATTCGCTTGACGCTGCTG | 1.69 z-score
GCCTAGCACGACGATATCAGACGGGAGACGTGCTAGGTCTTGATTCGCTTGACGCTGCTG | -0.0739 z-score

Single results of other studies
Molecule | target | test | system | conditions | how to read | endpoint | result
CTTCTGTAAATTTGACCTGTGGGTGGACGCGCCCCGGTCTTGATTCGCTTGACGCTGCTG | Centromere-binding protein 1, full length, His-tagged (CBF1, Saccharomyces cerevisiae, UniProt P17106, residues 1-351) | competition protein-binding microarray | double-stranded DNA, one strand shown, in vitro | 2 µM, whole 60-bp probe, lowest competitor level, together with: Pho4 competitor, 0.05 µM | higher = stronger binding | fluorescence intensity | 66.2 a.u.
PhoQ, residues 284 288 289 292 302 303 SACGEM | PhoP, residues 12 14 15 18 19 QYCSL (Escherichia coli, UniProt P23836) | Sort-seq, refers to: YFP reporter | E. coli | PhoQ-PhoP variant library, together with: 10 µM Mg2+ | relative to: high Mg2+ state, higher = stronger signaling | fold induction | 9.21

For quick reference, copied from above (set 1):
Sequence | E-score
GGAAATCC | 0.0129
ATCGTTAC | -0.137
